Values quoted from earlier work that unrelated publications cite.
“And” joins repeats or separate records; there may be more than shown. ± gives the spread as reported.
Sequence of UniProt P34972 (whole entry, looked up): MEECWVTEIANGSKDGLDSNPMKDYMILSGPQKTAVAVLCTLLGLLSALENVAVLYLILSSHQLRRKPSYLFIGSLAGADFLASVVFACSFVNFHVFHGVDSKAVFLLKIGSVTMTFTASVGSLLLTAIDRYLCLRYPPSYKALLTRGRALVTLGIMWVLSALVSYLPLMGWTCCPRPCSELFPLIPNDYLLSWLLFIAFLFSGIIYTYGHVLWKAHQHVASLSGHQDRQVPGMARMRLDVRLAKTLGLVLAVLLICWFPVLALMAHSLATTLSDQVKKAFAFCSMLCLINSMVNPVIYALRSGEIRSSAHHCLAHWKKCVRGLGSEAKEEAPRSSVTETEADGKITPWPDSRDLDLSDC
Sequence of UniProt Q12809 (whole entry, looked up): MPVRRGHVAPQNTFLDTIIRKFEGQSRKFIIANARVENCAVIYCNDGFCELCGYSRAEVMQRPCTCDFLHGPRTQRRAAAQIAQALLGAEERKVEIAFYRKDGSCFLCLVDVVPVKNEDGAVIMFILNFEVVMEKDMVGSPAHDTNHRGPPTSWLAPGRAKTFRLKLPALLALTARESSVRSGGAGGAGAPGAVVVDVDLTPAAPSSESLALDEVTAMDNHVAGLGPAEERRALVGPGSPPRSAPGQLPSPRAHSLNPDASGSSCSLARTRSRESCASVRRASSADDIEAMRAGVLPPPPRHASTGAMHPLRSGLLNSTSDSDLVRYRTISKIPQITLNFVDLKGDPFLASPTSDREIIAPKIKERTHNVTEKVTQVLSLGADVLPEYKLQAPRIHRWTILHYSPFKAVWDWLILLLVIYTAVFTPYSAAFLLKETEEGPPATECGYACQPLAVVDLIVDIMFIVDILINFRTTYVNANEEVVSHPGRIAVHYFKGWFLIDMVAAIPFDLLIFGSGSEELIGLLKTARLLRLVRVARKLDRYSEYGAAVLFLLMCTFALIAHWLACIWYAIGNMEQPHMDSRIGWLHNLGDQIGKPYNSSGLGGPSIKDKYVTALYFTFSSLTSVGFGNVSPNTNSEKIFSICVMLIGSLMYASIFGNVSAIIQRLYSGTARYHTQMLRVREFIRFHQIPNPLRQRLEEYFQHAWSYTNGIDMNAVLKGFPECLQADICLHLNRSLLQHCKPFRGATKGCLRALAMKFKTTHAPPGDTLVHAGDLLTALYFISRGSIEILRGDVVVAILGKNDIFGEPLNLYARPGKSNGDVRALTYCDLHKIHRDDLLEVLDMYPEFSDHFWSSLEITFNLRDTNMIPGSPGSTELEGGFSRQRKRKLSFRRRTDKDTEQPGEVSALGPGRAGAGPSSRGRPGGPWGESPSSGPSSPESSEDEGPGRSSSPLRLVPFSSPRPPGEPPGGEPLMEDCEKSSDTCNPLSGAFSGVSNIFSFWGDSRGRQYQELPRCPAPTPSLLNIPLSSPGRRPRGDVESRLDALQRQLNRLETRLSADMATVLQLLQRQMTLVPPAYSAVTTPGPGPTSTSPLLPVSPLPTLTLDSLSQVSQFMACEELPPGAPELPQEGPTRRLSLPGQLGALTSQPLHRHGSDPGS

SMILES	target or system	test	test system	setting	endpoint	result
c1cnc2[nH]cc(C3NCCc4sccc43)c2c1 (stereo not drawn)	COLO 320 ABCB1-resistant colon	cytotoxicity	–	–	IC50	> 100 µM
COc1ccc(Nc2nc(Nc3ccc(OCC[18F])cc3)ncc2Br)cc1	–	–	S180 tumour-bearing mice, brain	intravenous, 5 min	tissue uptake	1.2 ± 0.12 %ID/g
CCOC(=O)C(c1cc(Cl)c2cccnc2c1O)c1c[nH]c2ccccc12 (stereo not drawn)	COLO 205	cytotoxicity	–	–	IC50	5.51 µM and 4.71 µM and 4.42 µM
C/C(N)=N/C(=N\S(=O)(=O)c1ccc(C(F)(F)F)cc1)N1C[C@H](c2ccccc2)C(c2ccc(Cl)cc2)=N1	–	–	mouse	–	t1/2	4 h
NCCN1CCN(CC(=O)O)Cc2cccc(n2)CN(CC(=O)O)CC1	protonation constant	–	–	0.15 M NaCl	log KH3	6.91
CCOC(=O)C(c1cc(Cl)c2cccnc2c1O)N1CCOCC1 (stereo not drawn)	COLO 320 ABCB1-overexpressing	cell viability	–	–	IC50	1.72 µM
O=C(C=C(O)C(F)(F)C(F)(F)F)c1ccc(NC2CC2)nc1	Plasmodium falciparum formate-nitrite transporter	binding, FCCS	isolated protein	–	Ki	0.01 ± 0.002 µM
O=C(O)CN1CCNCCN(CC(=O)O)Cc2cccc(n2)C1	protonation constant	–	–	0.15 M NaCl	log KH2	5.97
CCOC(=O)C(c1cc(Cl)c2cccnc2c1O)c1c[nH]c2ncccc12 (stereo not drawn)	COLO 320 ABCB1-resistant colon	cytotoxicity	–	–	IC50	4.92 µM and 5.16 µM and 5.11 µM
O=C(O)CN1CCOCCN(CC(=O)O)Cc2cccc(n2)C1	protonation constant	–	–	0.15 M NaCl	log KH1	7.73
Cc1ccc2c(c1)nc(CCN1C(=O)c3cccc4cccc(c34)C1=O)n2-c1ccncc1	–	–	Sprague-Dawley rat	oral, 10 mg/kg	oral bioavailability	2.5%
CCn1c(=O)c(-c2cc(NC(=O)Nc3ccccc3)c(F)cc2Br)cc2cnc(N)cc21	–	–	human patients	150 mg once daily, from 0 to 12, geometric mean	AUC	7138 ± 44.4 ng·h/mL
Cn1cc(C(=O)NCc2ccc(Cl)cc2)c(=O)c2cc(CN3CCOCC3)sc21	Voltage-gated inwardly rectifying potassium channel KCNH2 (KCNH2, Homo sapiens, UniProt Q12809)	–	–	–	Hill slope	0.89
Ic1cc2nc(c1)CNCCNCCNC2	–	–	aqueous solution	Cu(II) 1 µM, ligand 10 µM	pCu	15.6
CCOC(=O)C(c1ccc2ccccc2c1O)c1c[nH]c2ccccc12 (stereo not drawn)	COLO 205	cell viability	–	–	IC50	> 100 µM
COc1nc(-c2cc(C)c(NC(C)c3ccc(F)cc3)nn2)ccc1-n1cnc(C)c1 (stereo not drawn)	hERG	channel function	–	–	IC50	6.2 µM
CC1(N(CC(=O)O)CC(=O)O)CN(CC(=O)O)CCN(CC(=O)O)C1	–	pH-potentiometry, measured: logK1H	0.15 M NaCl	25 °C	protonation constant (log)	10.1
O=C(O)CN(CC(=O)O)[C@H]1CCCC[C@@H]1N(CC(=O)O)Cc1ccccn1	protonation constant	–	–	0.15 M NaCl	log KH1	10.2
Oc1c(C(c2ccccc2)c2c[nH]c3ccccc23)cc(Cl)c2cccnc12 (stereo not drawn)	COLO 320 ABCB1-overexpressing	cell viability	–	–	IC50	2.72 µM
O=c1ccc(OCCCN2CCCCC2)nn1-c1ccc(Cl)c(Cl)c1	Cannabinoid receptor 2 (CNR2, Homo sapiens, UniProt P34972)	–	–	1.0 µM	inhibition	38.6 ± 1.9%
O=C(C=C(O)C(F)(F)C(F)(F)F)c1ccc(NCc2ccccc2)nc1	Plasmodium falciparum formate-nitrite transporter	binding, FCCS	isolated protein	–	Ki	0.032 ± 0.015 µM

Excerpt of the above:
SMILES	target or system	test	test system	setting	endpoint	result
O=C(C=C(O)C(F)(F)C(F)(F)F)c1ccc(NC2CC2)nc1	Plasmodium falciparum formate-nitrite transporter	binding, FCCS	isolated protein	–	Ki	0.01 ± 0.002 µM
NCCN1CCN(CC(=O)O)Cc2cccc(n2)CN(CC(=O)O)CC1	protonation constant	–	–	0.15 M NaCl	log KH3	6.91
